Results of several laboratories.
± marks the error that the study gave. ≈ marks a conversion by molar mass, not a printed value.
Organism: Escherichia coli

Compound	assay	test system	setting	scale	endpoint	result
CC[C@H](C)[C@H](NC(=O)CN)C(=O)NCC(=O)N[C@@H](CCCCN)C(=O)N[C@@H](Cc1ccccc1)C(=O)N[C@@H](CC(C)C)C(=O)N[C@@H](Cc1c[nH]cn1)C(=O)N[C@@H](CO)C(=O)N[C@@H](C)C(=O)N[C@@H](CCCCN)C(=O)N[C@@H](CCCCN)C(=O)N[C@@H](Cc1ccccc1)C(=O)NCC(=O)N[C@@H](CCCCN)C(=O)N[C@@H](C)C(=O)N[C@@H](Cc1ccccc1)C(=O)N[C@H](C(=O)NCC(=O)N[C@@H](CCC(=O)O)C(=O)N[C@H](C(=O)N[C@@H](CCSC)C(=O)N[C@@H](CC(N)=O)C(=O)N[C@@H](CO)C(=O)O)[C@@H](C)CC)C(C)C	–	DH5α	24 h, 37 °C	–	MBC	30 µM (≈ 74 µg/mL)
CC(C)C[C@H](NC(=O)[C@H](CCCNC(=N)N)NC(=O)[C@@H]1CCCN1C(=O)[C@H](CCCNC(=N)N)NC(=O)[C@@H]1CCCN1C(=O)[C@@H]1CCCN1C(=O)[C@H](CCCNC(=N)N)NC(=O)[C@@H]1CCCN1C(=O)[C@H](CCC(N)=O)NC(=O)[C@@H]1CCCN1C(=O)[C@H](CCCCN)NC(=O)[C@H](Cc1ccc(O)cc1)NC(=O)[C@@H](NC(=O)[C@@H]1CCCN1C(=O)[C@H](CCCNC(=N)N)NC(=O)[C@H](CC(N)=O)NC(=O)[C@H](CC(N)=O)NC(=O)CN)C(C)C)C(=O)O	broth microdilution	BW25113 parental, Mueller-Hinton broth	18 h, 37 °C	–	MIC	0.067 ± 0.033 µM
CC(C)C[C@H](NC(=O)[C@H](C)NC(=O)[C@H](CC(C)C)NC(=O)[C@H](CCCCN)NC(=O)[C@H](CCCCN)NC(=O)[C@H](Cc1c[nH]c2ccccc12)NC(=O)[C@H](CC(C)C)NC(=O)[C@H](CC(C)C)NC(=O)[C@H](C)NC(=O)[C@H](CC(C)C)NC(=O)[C@H](CCCCN)NC(=O)[C@H](CCCCN)NC(=O)[C@H](CC(C)C)NC(=O)[C@H](C)NC(=O)[C@H](CC(C)C)NC(=O)[C@H](C)NC(=O)[C@H](CC(C)C)NC(=O)[C@H](CCCCN)NC(=O)[C@@H](N)CCCCN)C(=O)N[C@@H](C)C(=O)N[C@@H](CC(C)C)C(=O)N[C@@H](CCCCN)C(=O)N[C@@H](CCCCN)C(=O)N[C@@H](C)C(N)=O	broth microdilution	TOP10	overnight, 37 °C	–	MIC50	1.47 ± 0.64 µM
CC(C)C[C@@H](NC(=O)[C@H](C)NC(=O)CNC(=O)[C@@H](NC=O)C(C)C)C(=O)N[C@@H](C)C(=O)N[C@@H](C(=O)N[C@H](C(=O)N[C@@H](C(=O)N[C@@H](Cc1c[nH]c2ccccc12)C(=O)N[C@H](CC(C)C)C(=O)N[C@@H](Cc1c[nH]c2ccccc12)C(=O)N[C@H](CC(C)C)C(=O)N[C@@H](Cc1c[nH]c2ccccc12)C(=O)N[C@H](CC(C)C)C(=O)N[C@@H](Cc1c[nH]c2ccccc12)C(=O)NCCO)C(C)C)C(C)C)C(C)C	–	K-12 sample A (CGSC sample B)	–	–	MBC	8 µM (≈ 15.1 µg/mL)
CN(C)[C@@H]1C(O)=C(C(N)=O)C(=O)[C@@]2(O)C(O)=C3C(=O)c4c(O)cccc4[C@@](C)(O)[C@H]3C[C@@H]12	–	wild type	evolution over 160 generations	baseline: ancestor strain	MIC fold increase	40 fold
CC(C)C[C@H](NC(=O)[C@H](C)NC(=O)[C@H](CC(C)C)NC(=O)[C@H](CCCCN)NC(=O)[C@H](CCCCN)NC(=O)[C@H](Cc1c[nH]c2ccccc12)NC(=O)[C@H](CC(C)C)NC(=O)[C@H](CC(C)C)NC(=O)[C@H](C)NC(=O)[C@H](CC(C)C)NC(=O)[C@H](CCCCN)NC(=O)[C@H](CCCCN)NC(=O)[C@@H]1CCCN1C(=O)[C@H](C)NC(=O)[C@H](CC(C)C)NC(=O)[C@H](C)NC(=O)[C@H](CC(C)C)NC(=O)[C@H](CCCCN)NC(=O)[C@@H](N)CCCCN)C(=O)N[C@@H](C)C(=O)N[C@@H](CC(C)C)C(=O)N[C@@H](CCCCN)C(=O)N[C@@H](CCCCN)C(=O)N[C@@H](C)C(N)=O	broth microdilution	TOP10	overnight, 37 °C	–	MIC50	0.45 ± 0.1 µM
CC(C)C[C@H](NC(=O)[C@H](Cc1c[nH]c2ccccc12)NC(=O)[C@H](CCCNC(=N)N)NC(=O)[C@@H](N)Cc1ccccc1)C(=O)N[C@@H](CCCNC(=N)N)C(=O)N[C@@H](CCCCN)C(=O)N[C@@H](Cc1c[nH]c2ccccc12)C(=O)N[C@@H](Cc1ccccc1)C(=O)N[C@@H](CCCNC(=N)N)C(=O)N[C@@H](CCCNC(=N)N)C(=O)O	bacterial killing, colony count	BL21	1 h, pH 7, 37 °C	–	EC50	2.9 mg/L (≈ 1.87 µM)
CC[C@H](C)[C@H](NC(=O)CN)C(=O)NCC(=O)N[C@@H](C)C(=O)N[C@H](C(=O)N[C@@H](CC(C)C)C(=O)N[C@@H](CCCCN)C(=O)N[C@H](C(=O)N[C@@H](CC(C)C)C(=O)N[C@H](C(=O)N[C@H](C(=O)NCC(=O)N[C@@H](CC(C)C)C(=O)N1CCC[C@H]1C(=O)N[C@@H](C)C(=O)N[C@@H](CC(C)C)C(=O)N[C@H](C(=O)N[C@@H](CO)C(=O)N[C@@H](Cc1c[nH]c2ccccc12)C(=O)N[C@H](C(=O)N[C@@H](CCCCN)C(=O)N[C@@H](CCCNC(=N)N)C(=O)N[C@@H](CCCCN)C(=O)N[C@@H](CCCNC(=N)N)C(=O)N[C@@H](CCC(N)=O)C(=O)N[C@@H](CCC(N)=O)C(N)=O)[C@@H](C)CC)[C@@H](C)CC)[C@@H](C)O)[C@@H](C)O)C(C)C)C(C)C	–	K-12 sample A (CGSC sample B)	–	–	MBC	2 µM (≈ 5.69 µg/mL)
N=C(N)NCCC[C@H](NC(=O)[C@H](Cc1c[nH]cn1)NC(=O)[C@@H]1CCCN1C(=O)[C@H](CS)NC(=O)CN)C(=O)N[C@@H](CS)C(=O)O	broth microdilution	MTCC 443	37 °C	–	MIC	80 mg/L
CC(C)C[C@H](NC(=O)[C@H](C)NC(=O)[C@H](CC(C)C)NC(=O)[C@H](CCCCN)NC(=O)[C@H](CC(C)C)NC(=O)[C@H](CCCCN)NC(=O)[C@@H](N)CCCCN)C(=O)N[C@@H](C)C(=O)N[C@@H](CCCCN)C(=O)N[C@@H](CC(C)C)C(=O)N[C@@H](C)C(=O)N1CCC[C@H]1C(=O)N[C@@H](CC(C)C)C(=O)N[C@@H](Cc1c[nH]c2ccccc12)C(=O)N[C@@H](CCCCN)C(=O)N[C@@H](C)C(=O)N[C@@H](CC(C)C)C(=O)N[C@@H](C)C(=O)N[C@@H](CC(C)C)C(=O)N[C@@H](CCCCN)C(=O)N[C@@H](CC(C)C)C(=O)N[C@@H](CCCCN)C(=O)N[C@@H](CCCCN)C(=O)N[C@@H](C)C(N)=O	broth microdilution	TOP10	overnight, 37 °C	–	MIC50	0.38 ± 0.08 µM
C=CCCC[n+]1cc(-c2ccc3ccccc3n2)cc2ccccc21	lacZ reporter expression	VirF-independent lacZ control	3 h, 37 °C, 6.2% DMSO, together with: 1 mM IPTG	–	IC50	> 100 µM
CC(C)C[C@H](NC(=O)[C@H](C)NC(=O)[C@H](CCCCN)NC(=O)[C@H](C)NC(=O)[C@H](CC(C)C)NC(=O)[C@H](CCCCN)NC(=O)[C@H](CC(C)C)NC(=O)[C@H](Cc1c[nH]c2ccccc12)NC(=O)[C@H](CC(C)C)NC(=O)[C@H](CC(C)C)NC(=O)[C@H](C)NC(=O)[C@H](CC(C)C)NC(=O)[C@H](CC(C)C)NC(=O)[C@H](CCCCN)NC(=O)[C@@H]1CCCN1C(=O)[C@H](C)NC(=O)[C@H](CCCCN)NC(=O)[C@H](C)NC(=O)[C@H](CC(C)C)NC(=O)[C@H](CCCCN)NC(=O)[C@@H](N)CCCCN)C(=O)N[C@@H](CCCCN)C(=O)N[C@@H](CCCCN)C(=O)N[C@@H](C)C(N)=O	broth microdilution	TOP10	overnight, 37 °C	–	MIC50	1.26 ± 0.49 µM
NC[C@@H]1O[C@H](O[C@H]2[C@@H](O)[C@H](O[C@@H]3[C@@H](O)[C@H](N)C[C@H](N)[C@H]3O[C@H]3O[C@H](CN)[C@@H](O)[C@H](O)[C@H]3N)O[C@@H]2CNC(=O)Cc2ccc3ccc4cccc5ccc2c3c45)[C@H](N)[C@@H](O)[C@@H]1O	protein translation	S30 cell-free extract	–	–	IC50	~1.2 µM
CC(C)C[C@H](NC(=O)[C@H](C)NC(=O)[C@H](CCCCN)NC(=O)[C@H](C)NC(=O)[C@H](CC(C)C)NC(=O)[C@H](CCCCN)NC(=O)[C@H](CC(C)C)NC(=O)[C@H](Cc1c[nH]c2ccccc12)NC(=O)[C@H](CC(C)C)NC(=O)[C@@H]1CCCN1C(=O)[C@H](C)NC(=O)[C@H](CC(C)C)NC(=O)[C@H](CC(C)C)NC(=O)[C@H](CCCCN)NC(=O)[C@H](CC(C)C)NC(=O)[C@H](C)NC(=O)[C@H](CCCCN)NC(=O)[C@H](C)NC(=O)[C@H](CC(C)C)NC(=O)[C@H](CCCCN)NC(=O)[C@@H](N)CCCCN)C(=O)N[C@@H](CCCCN)C(=O)N[C@@H](CCCCN)C(=O)N[C@@H](C)C(N)=O	broth microdilution	NCTC 9001	overnight, 37 °C	–	MIC50	1.8 ± 0.27 µM
CC[C@H](C)[C@H](N)C(=O)N[C@@H](CC(C)C)C(=O)N1CCC[C@H]1C(=O)N[C@@H](Cc1c[nH]c2ccccc12)C(=O)N[C@@H](CCCCN)C(=O)N[C@@H](Cc1c[nH]c2ccccc12)C(=O)N1CCC[C@H]1C(=O)N[C@@H](Cc1c[nH]c2ccccc12)C(=O)N[C@@H](Cc1c[nH]c2ccccc12)C(=O)N1CCC[C@H]1C(=O)N[C@@H](Cc1c[nH]c2ccccc12)C(=O)N[C@@H](CCCNC(=N)N)C(=O)N[C@@H](CCCNC(=N)N)C(N)=O	broth microdilution	–	18 h, 30 clinical isolates	–	MIC50	2 mg/L

Excerpt of the above:
Compound	assay	test system	setting	scale	endpoint	result
CC[C@H](C)[C@H](NC(=O)CN)C(=O)NCC(=O)N[C@@H](CCCCN)C(=O)N[C@@H](Cc1ccccc1)C(=O)N[C@@H](CC(C)C)C(=O)N[C@@H](Cc1c[nH]cn1)C(=O)N[C@@H](CO)C(=O)N[C@@H](C)C(=O)N[C@@H](CCCCN)C(=O)N[C@@H](CCCCN)C(=O)N[C@@H](Cc1ccccc1)C(=O)NCC(=O)N[C@@H](CCCCN)C(=O)N[C@@H](C)C(=O)N[C@@H](Cc1ccccc1)C(=O)N[C@H](C(=O)NCC(=O)N[C@@H](CCC(=O)O)C(=O)N[C@H](C(=O)N[C@@H](CCSC)C(=O)N[C@@H](CC(N)=O)C(=O)N[C@@H](CO)C(=O)O)[C@@H](C)CC)C(C)C	–	DH5α	24 h, 37 °C	–	MBC	30 µM (≈ 74 µg/mL)
CN(C)[C@@H]1C(O)=C(C(N)=O)C(=O)[C@@]2(O)C(O)=C3C(=O)c4c(O)cccc4[C@@](C)(O)[C@H]3C[C@@H]12	–	wild type	evolution over 160 generations	baseline: ancestor strain	MIC fold increase	40 fold
